Measurements from different studies.
Protocols differ between the studies behind these lines. ± gives the spread as reported.

Structure (SMILES) = C=C(NC(=O)c1csc(-c2nc3c(cc2O)-c2nc(cs2)C(=O)NC(C(C)O)C(=O)NC(=C(C)OC)c2nc(cs2)C(=O)NC2c4nc(cs4)C(=O)NC(COC(=O)c4c5c6c(cccc6n4O)COC(=O)C(OC4CC(C)(O)C(N(C)C)C(C)O4)C2OC5)c2nc-3cs2)n1)C(N)=O (stereo not drawn); tested on = Streptococcus pneumoniae; system = -4, immunocompromised mice, lung; setting = 32 mg/kg/day thrice daily, 24 h post-dose; endpoint = lung bacterial load; value = 3.7 log10 CFU/lung
Structure (SMILES) = COc1cc(O)ccc1CCC(c1ccc(O)cc1)c1cc2c(c(C)c1O)OC(c1ccc(O)cc1)CC2 (mixture of isomers); system = human blood; setting = 0.3 µM, together with: A23187; endpoint = 5-HEPE level; value = 94 ± 24 pg/mL
Structure (SMILES) = CN1CCCNC(=O)c2cccc(c2)C(=O)NCCCN(C)CCCNc2cccc3c2C(=O)c2cccc(c2C3=O)NCCC1; tested on = SAS; assay = RNA-Seq, measured: ERMAP mRNA; setting = 1 µM, 6 h; scale = baseline: untreated cells; endpoint = log2 fold change; value = 1.52
Structure (SMILES) = Nc1ncc(-c2cc(-c3cnn(CC(F)(F)F)c3)ncc2F)nc1C(=O)NC1CNCC(F)C1 (stereo not drawn); tested on = ICK; assay = KINOMEscan competition binding; setting = 1 µM; scale = baseline: DMSO control; endpoint = remaining binding; value = 90%
Structure (SMILES) = CCN(CC)CC(=O)Nc1cccc(-n2cc(-c3ccc4ccc(-c5cn(-c6cccc(NC(=O)CN(CC)CC)c6)nn5)cc4c3)nn2)c1; tested on = RCC4; assay = PCR angiogenesis array, measured: MMP2; setting = 5 x IC50, 4 h, normoxia; scale = baseline: untreated; endpoint = fold regulation; value = 1.65
Structure (SMILES) = COc1ccc(C(=O)CCc2cc(C(CCc3ccc(O)cc3OC)c3ccc(O)cc3)c(O)cc2OC)cc1 (racemic); system = human blood; setting = 0.3 µM, together with: A23187; endpoint = PGD2 level; value = 4 ± 4 pg/mL
Structure (SMILES) = Cc1ncsc1-c1ccc(C(C)NC(=O)C2CC(O)CN2C(=O)C(NC(=O)CCCCCCCCCCN2CCCC(Nc3ncc(Cl)c(Nc4ccccc4S(=O)(=O)C(C)C)n3)C2)C(C)(C)C)cc1 (stereo not drawn); tested on = 22Rv1; assay = RNA-seq, measured: SETX mRNA; setting = concentration not given; scale = baseline: DMSO; endpoint = log2 fold change; value = -1.04
Structure (SMILES) = CN1CCC[C@]1(C)/C=C/S(=O)(=O)NC(=O)Nc1c2c(cc3c1CCC3)CCC2; system = human, whole blood ex vivo; setting = 100 mg single dose, 3 h, single ascending dose, together with: LPS and ATP; endpoint = IL-1β inhibition; value = 99.5%
Structure (SMILES) = C=CC(=O)Nc1cccc(Cn2ncc3cnc(Nc4cnn(CCOC)c4)nc32)c1; tested on = ERK4 human; assay = binding, KINOMEscan; setting = 100 nM; scale = lower = stronger binding; endpoint = percent of control; value = 100%
Structure (SMILES) = CNS(=O)(=O)Nc1nccc(Cc2c(C)c3ccc(Oc4ncccc4F)cc3oc2=O)c1F; tested on = Kelly; assay = cell viability, CellTiter-Glo; setting = 7 days; endpoint = IC50; value = 0.682 µM
Structure (SMILES) = COC1CN([C@H]2CC[C@H]([C@@]3(C)Oc4c(Cl)cc(C(=O)NCc5c(SC)cc(C)[nH]c5=O)c(C)c4O3)CC2)C1; assay = RNA-seq, measured: ZNF704 mouse homolog; system = mouse, HT-1376 xenograft, whole blood; setting = dose not given; scale = baseline: vehicle; endpoint = log2 fold change; value = 0.329
Structure (SMILES) = CC(=O)[O-].O.O.O.O.[Co+2].[O-]c1ccc(Br)cc1C=NCCN1CCOCC1; assay = superoxide scavenging; setting = 120 µM; endpoint = inhibition; value = 26.5%

Some of these lines once more:
Structure (SMILES) = COc1ccc(C(=O)CCc2cc(C(CCc3ccc(O)cc3OC)c3ccc(O)cc3)c(O)cc2OC)cc1 (racemic); system = human blood; setting = 0.3 µM, together with: A23187; endpoint = PGD2 level; value = 4 ± 4 pg/mL
Structure (SMILES) = CN1CCCNC(=O)c2cccc(c2)C(=O)NCCCN(C)CCCNc2cccc3c2C(=O)c2cccc(c2C3=O)NCCC1; tested on = SAS; assay = RNA-Seq, measured: ERMAP mRNA; setting = 1 µM, 6 h; scale = baseline: untreated cells; endpoint = log2 fold change; value = 1.52
